Measured values gathered from unrelated publications.
Numbered parts are unrelated; each lists some results of a single study. Changes are numbered by the printed parent chain.

Study 1 — technique: DHFR PCA, deep sequencing; medium: yeast; added: (+)-ABA 0.11 µM; relative to: wild-type fitted maximum; direction: higher = stronger binding
Target: ABI1, truncated, D143A, DHFR fusion (Arabidopsis thaliana)
Notes: methotrexate growth selection, single substitutions
Starting sequence: PYL1, truncated, DHFR fusion (Arabidopsis thaliana); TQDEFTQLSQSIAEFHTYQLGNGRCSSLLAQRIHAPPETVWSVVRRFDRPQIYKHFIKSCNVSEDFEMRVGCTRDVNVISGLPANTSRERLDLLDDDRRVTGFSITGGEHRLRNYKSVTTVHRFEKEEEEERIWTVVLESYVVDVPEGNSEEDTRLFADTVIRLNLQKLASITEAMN
| Variant | relative binding score |
| --- | --- |
| D3P | 25.4% |
| L8V | 2.69% |
| P50L | 0.133% |
| A170T | 10.5% |
| N61G | 1.03% |
| C25M | 6.24% |
| N177H | 26.2% |
| A30S | 36.2% |
| Y53C | -0.633% |

Study 2 — technique: protein-binding microarray; molecule type: double-stranded DNA, one strand shown; medium: in vitro; concentration: 2540 nM top; notes: 60-bp whole probe; added: salmon DNA 0.4 mg/ml; relative to: random background probes; direction: higher = stronger binding; all sequences stand within: GCCTAGCAC … GTCTTGATTCGCTTGACGCTGCTG
Target: Interferon regulatory factor 3, full length, phosphomimetic (IRF3, Homo sapiens, UniProt Q14653, residues 1-427, S386D/S396D/S398D/S402D/T404D/S405D)
Target sequence (chain): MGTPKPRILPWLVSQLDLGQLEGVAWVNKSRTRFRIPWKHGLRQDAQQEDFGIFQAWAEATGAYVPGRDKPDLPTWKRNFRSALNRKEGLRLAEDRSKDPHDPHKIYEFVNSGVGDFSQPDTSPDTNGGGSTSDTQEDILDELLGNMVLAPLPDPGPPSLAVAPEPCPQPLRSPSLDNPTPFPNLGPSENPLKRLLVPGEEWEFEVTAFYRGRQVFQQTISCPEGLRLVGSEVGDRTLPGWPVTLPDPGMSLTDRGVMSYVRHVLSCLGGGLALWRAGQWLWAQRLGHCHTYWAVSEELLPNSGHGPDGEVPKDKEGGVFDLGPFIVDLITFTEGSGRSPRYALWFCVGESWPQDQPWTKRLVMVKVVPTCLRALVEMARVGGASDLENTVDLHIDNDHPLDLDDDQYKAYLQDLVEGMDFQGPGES
| Sequence | fitted relative affinity [z-score] |
| --- | --- |
| GACGATATCGGGACTGGAGAAGTGCTA | 0.216 |
| GACGATATCAGACGGGAGACGTGCTAG | -0.0739 |
| TTAGAGCTGAGTCTCGATTAGTGCTAG | -0.439 |
| GGCCGTCTGAGCTCCGTAGCGTGCTAG | -0.789 |
| TTAGGTATCTTTCTCCTTTAGTGCTAG | 3.08 |
| GACGTTTTCGGACTGGGGACGTGCTAG | 2.09 |
| TTAGGACTGGGTATCCGTTAGTGCTAG | 0.237 |
| TGAGATATCAGTCTCGATTAGTGCTAG | 1.11 |
| GACGCTATCCTTTTCCTGACGTGCTAG | 4.67 |
| TTAGGTATCGGTCTCTGTTAGTGCTAG | 4.57 |
| TGAGATTTCGGGTTTCGATTAGTGCTA | 3.26 |
| GACGATCTCAGTTTCGAAACGTGCTAG | 3.99 |
| TTAAGTTTCCTTATCCTTTAGTGCTAG | 8.88 |
| GACGGTATCAACTATCGGGACGTGCTA | 0.645 |
| TATGTTCACTATTTAAGACCGTGCTAG | 1.11 |

Study 3 — target: CCNE2, cyclin fold, Cln2 fusion (human); technique: yeast growth competition, sequencing; medium: yeast; notes: strong parent motif; relative to: not given; direction: higher = stronger binding
Starting sequence: GMNC docking peptide (human); KNAKRNLSSEFAN; partner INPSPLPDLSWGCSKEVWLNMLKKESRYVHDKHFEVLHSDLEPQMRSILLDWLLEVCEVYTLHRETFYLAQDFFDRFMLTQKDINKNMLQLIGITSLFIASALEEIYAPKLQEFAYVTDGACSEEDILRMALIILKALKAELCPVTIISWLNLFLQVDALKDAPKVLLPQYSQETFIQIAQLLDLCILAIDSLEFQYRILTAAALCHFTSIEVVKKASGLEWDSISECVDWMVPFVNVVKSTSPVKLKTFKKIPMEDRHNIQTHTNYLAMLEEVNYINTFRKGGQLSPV
| Variant | normalised enrichment score |
| --- | --- |
| KNAKRQLSSEFAN [N6Q] | 0.531 |
| KNAKRNLSSRFAN [E10R] | 0.537 |
| KNAKRNLSSDFAN [E10D] | 0.704 |
| KNAKRNLSSEFTN [A12T] | 1.59 |
| KEAKRNLSSEFAN [N2E] | 1.06 |
| KNVKRNLSSEFAN [A3V] | 3.09 |
| KTAKRNLSSEFAN [N2T] | 1.71 |
| KNAKRNLWSEFAN [S8W] | 1.09 |
| KNAKENLSSEFAN [R5E] | 0.247 |
| KNAKRNLSSECAN [F11C] | 0.4 |
| KNAKRNLSSEFKN [A12K] | 1.05 |
| KNARRNLSSEFAN [K4R] | 2.61 |
| KSAKRNLSSEFAN [N2S] | 1.83 |

Mixed results
| Substance | target | test | system | setting | scale | quantity | value |
| --- | --- | --- | --- | --- | --- | --- | --- |
| PhoQ, residues 284 288 289 292 302 303 AAQSYM | PhoP, residues 12 14 15 18 19 QYCSL (Escherichia coli, UniProt P23836) | Sort-seq, refers to: YFP reporter | E. coli | PhoQ-PhoP variant library, added: 10 µM Mg2+ | relative to: high Mg2+ state, higher = stronger signaling | fold induction | 3.71 |

Excerpt of the above (study 2):
| Sequence | fitted relative affinity [z-score] |
| --- | --- |
| TGAGATTTCGGGTTTCGATTAGTGCTA | 3.26 |
| GACGATCTCAGTTTCGAAACGTGCTAG | 3.99 |
| TTAAGTTTCCTTATCCTTTAGTGCTAG | 8.88 |
| GACGGTATCAACTATCGGGACGTGCTA | 0.645 |
| TATGTTCACTATTTAAGACCGTGCTAG | 1.11 |
